Measurements pooled from the literature.
± marks the error that the study gave.

By UniProt entry, the sequences of proteins in these tests, tags left out. Residues count along the entry.
UniProt Q00960, 27-1482 limits assumed: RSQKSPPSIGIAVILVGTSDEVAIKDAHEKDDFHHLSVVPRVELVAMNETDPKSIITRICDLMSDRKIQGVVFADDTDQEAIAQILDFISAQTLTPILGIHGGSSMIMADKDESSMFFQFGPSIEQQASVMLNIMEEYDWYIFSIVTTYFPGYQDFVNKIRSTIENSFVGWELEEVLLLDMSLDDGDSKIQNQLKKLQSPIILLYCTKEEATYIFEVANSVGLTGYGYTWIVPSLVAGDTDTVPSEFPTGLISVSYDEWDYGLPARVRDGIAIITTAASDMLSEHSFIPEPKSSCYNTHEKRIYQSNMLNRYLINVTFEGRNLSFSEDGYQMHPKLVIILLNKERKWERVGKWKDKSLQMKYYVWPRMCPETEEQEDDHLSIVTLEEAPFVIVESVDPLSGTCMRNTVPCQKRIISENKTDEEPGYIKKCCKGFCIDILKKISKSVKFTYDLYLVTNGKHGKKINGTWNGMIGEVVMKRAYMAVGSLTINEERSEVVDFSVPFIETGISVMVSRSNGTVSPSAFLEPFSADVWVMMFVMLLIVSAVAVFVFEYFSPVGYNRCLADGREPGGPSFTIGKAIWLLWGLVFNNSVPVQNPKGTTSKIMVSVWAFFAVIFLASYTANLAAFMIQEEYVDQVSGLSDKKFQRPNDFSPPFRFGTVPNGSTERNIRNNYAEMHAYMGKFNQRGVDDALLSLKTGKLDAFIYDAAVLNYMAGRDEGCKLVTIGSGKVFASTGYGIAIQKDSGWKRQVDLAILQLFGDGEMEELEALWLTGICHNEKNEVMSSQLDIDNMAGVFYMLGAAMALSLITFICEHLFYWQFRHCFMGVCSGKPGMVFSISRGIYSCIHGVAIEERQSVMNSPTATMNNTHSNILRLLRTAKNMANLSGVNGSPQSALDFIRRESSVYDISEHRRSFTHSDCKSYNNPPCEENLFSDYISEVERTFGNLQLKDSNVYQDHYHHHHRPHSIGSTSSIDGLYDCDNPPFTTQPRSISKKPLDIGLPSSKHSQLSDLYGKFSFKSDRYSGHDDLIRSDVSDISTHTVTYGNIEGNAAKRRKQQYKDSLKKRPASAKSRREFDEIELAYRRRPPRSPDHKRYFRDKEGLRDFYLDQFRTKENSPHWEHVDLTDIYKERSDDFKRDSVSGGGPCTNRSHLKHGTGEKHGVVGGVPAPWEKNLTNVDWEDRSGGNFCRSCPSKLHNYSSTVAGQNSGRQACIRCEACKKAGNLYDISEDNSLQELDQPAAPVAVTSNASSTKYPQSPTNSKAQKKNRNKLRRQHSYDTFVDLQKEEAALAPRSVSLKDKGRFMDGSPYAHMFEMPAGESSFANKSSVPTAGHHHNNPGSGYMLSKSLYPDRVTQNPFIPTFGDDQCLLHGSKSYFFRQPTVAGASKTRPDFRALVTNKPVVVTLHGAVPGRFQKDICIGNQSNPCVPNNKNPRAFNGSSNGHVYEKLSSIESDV
UniProt Q9UM73, whole entry, looked up: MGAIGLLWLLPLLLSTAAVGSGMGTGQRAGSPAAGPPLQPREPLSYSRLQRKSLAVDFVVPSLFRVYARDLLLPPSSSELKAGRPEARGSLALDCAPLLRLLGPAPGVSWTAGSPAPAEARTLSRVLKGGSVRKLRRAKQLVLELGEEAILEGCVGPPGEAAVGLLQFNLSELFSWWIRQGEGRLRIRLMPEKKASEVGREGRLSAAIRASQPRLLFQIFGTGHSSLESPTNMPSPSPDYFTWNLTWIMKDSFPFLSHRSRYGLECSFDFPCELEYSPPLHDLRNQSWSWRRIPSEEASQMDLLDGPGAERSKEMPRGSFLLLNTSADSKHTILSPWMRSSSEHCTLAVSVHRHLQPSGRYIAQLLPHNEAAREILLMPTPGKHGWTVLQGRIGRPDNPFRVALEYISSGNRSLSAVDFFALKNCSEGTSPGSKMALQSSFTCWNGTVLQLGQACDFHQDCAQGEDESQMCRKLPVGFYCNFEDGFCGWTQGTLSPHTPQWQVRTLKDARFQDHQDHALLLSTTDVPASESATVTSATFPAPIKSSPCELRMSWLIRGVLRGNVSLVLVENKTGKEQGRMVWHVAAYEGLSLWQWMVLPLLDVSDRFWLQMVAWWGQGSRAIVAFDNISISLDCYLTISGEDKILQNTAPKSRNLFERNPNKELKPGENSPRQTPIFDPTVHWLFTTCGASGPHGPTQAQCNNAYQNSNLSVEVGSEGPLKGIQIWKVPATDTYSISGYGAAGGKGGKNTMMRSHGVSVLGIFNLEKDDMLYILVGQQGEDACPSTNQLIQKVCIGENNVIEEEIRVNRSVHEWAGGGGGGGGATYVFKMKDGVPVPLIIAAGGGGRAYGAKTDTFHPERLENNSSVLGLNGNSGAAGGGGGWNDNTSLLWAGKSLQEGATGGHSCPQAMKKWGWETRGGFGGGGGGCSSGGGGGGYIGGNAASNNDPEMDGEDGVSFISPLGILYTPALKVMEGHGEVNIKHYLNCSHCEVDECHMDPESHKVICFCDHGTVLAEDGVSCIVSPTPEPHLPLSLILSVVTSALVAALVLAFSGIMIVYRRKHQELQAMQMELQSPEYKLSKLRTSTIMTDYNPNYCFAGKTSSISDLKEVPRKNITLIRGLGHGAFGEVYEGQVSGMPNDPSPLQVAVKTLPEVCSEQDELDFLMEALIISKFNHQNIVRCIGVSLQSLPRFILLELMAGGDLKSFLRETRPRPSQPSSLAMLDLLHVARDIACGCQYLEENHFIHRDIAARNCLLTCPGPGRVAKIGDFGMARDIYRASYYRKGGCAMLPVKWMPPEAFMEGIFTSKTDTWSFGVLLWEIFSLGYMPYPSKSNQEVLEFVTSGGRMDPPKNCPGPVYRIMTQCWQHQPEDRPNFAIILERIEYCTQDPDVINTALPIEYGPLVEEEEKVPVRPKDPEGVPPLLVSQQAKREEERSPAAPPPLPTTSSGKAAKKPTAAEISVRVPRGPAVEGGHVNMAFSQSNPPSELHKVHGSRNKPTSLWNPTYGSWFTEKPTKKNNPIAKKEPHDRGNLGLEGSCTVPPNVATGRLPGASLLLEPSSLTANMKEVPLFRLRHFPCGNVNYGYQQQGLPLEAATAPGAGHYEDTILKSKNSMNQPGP
UniProt P00519, 242-493 limits assumed: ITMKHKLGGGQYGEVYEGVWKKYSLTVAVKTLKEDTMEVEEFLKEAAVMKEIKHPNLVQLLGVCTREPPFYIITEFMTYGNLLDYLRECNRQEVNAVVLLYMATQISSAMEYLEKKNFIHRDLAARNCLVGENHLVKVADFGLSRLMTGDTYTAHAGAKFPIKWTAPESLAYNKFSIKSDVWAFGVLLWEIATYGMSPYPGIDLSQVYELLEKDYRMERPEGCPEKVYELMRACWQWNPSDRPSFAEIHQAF
UniProt A0A381MCS3, 1-451: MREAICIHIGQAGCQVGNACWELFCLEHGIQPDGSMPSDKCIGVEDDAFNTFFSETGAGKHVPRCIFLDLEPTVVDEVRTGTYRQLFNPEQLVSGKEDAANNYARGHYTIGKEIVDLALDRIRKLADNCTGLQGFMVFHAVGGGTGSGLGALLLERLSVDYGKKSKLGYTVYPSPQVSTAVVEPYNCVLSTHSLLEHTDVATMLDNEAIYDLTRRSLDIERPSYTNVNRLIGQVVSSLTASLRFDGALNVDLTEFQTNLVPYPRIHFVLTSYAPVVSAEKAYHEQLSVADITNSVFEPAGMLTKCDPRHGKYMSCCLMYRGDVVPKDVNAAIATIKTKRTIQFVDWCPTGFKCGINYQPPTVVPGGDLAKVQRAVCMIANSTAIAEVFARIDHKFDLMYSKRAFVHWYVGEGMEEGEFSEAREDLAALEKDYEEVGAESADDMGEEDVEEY
UniProt A4HTR0, 1-443: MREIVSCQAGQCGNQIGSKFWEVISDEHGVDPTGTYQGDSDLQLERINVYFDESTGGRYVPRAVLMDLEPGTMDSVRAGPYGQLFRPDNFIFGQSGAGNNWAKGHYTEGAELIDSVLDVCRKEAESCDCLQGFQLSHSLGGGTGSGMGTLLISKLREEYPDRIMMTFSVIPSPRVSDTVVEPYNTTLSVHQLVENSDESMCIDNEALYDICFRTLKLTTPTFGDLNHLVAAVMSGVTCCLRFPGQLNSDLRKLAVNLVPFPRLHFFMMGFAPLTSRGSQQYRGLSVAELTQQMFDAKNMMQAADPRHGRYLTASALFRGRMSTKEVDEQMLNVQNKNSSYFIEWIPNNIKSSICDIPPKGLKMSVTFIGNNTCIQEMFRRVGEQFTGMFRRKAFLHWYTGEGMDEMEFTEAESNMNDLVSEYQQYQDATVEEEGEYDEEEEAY
UniProt Q9BV23, whole entry: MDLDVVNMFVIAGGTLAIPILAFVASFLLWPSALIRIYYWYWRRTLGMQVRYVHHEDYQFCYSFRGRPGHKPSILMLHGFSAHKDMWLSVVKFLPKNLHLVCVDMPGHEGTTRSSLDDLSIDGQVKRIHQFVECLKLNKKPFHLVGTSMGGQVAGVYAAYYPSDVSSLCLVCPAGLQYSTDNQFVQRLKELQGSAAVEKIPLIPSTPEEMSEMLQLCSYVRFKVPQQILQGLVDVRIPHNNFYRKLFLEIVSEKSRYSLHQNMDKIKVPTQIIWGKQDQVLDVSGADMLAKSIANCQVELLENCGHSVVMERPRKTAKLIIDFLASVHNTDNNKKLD
UniProt P11362, 22-822 limits assumed: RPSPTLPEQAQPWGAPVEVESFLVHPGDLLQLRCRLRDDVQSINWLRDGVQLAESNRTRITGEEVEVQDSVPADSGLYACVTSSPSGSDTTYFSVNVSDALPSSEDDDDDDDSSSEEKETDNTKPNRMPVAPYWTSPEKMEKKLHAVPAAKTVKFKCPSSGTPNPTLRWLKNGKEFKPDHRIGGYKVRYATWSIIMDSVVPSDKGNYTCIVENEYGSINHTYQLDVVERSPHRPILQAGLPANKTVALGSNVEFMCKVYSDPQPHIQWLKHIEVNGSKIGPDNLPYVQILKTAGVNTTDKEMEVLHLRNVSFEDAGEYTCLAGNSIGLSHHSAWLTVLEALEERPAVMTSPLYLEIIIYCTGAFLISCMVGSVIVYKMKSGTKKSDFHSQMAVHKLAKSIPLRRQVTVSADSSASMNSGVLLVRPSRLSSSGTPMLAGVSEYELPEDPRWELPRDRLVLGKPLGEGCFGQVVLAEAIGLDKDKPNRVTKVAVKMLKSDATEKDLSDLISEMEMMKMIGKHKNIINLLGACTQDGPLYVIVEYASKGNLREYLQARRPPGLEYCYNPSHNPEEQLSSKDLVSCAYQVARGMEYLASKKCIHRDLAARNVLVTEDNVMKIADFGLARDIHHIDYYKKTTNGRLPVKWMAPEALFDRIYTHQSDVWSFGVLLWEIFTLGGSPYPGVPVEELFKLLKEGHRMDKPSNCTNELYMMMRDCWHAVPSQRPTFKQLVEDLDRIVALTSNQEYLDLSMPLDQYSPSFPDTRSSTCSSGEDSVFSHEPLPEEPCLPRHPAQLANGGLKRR
UniProt P28065, whole entry, looked up: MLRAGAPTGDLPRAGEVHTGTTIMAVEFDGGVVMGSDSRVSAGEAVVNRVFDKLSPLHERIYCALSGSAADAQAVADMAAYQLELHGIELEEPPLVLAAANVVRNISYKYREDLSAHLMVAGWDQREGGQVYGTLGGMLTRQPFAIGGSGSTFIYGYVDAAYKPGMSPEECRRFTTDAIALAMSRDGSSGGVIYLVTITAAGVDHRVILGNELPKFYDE
UniProt P35354, 18-604 limits assumed: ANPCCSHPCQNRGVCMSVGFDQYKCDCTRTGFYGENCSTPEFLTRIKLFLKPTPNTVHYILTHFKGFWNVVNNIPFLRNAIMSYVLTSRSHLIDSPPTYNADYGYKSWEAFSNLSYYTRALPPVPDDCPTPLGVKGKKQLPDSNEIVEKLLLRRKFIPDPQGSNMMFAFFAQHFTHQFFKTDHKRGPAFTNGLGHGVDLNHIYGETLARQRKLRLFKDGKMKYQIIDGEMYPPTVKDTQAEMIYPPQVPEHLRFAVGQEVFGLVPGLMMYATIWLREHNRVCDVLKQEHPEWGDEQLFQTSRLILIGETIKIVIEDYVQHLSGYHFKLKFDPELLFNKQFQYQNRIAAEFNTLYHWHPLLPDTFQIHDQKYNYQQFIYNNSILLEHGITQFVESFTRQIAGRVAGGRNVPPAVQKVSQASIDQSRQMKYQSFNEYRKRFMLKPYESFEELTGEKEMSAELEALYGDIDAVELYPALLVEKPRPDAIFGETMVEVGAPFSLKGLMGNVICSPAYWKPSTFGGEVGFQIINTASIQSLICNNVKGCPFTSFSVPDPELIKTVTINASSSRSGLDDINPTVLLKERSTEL
UniProt O08808, 748-1175 limits assumed: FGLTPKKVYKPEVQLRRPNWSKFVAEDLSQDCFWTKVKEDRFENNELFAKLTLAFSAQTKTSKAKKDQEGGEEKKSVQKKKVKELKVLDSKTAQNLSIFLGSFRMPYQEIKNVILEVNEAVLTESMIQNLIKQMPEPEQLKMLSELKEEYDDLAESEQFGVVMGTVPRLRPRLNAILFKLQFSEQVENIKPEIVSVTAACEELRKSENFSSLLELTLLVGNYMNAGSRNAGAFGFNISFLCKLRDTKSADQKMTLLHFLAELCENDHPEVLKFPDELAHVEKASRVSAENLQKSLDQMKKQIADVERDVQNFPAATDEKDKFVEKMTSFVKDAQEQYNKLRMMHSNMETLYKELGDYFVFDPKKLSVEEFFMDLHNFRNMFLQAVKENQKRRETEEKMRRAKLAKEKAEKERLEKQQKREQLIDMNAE

CCOC(=O)c1noc2c1C(=O)C(C)=C(C)C2=O — IC50 (TDP2 (Homo sapiens, UniProt O95551); enzyme activity, inhibitor; with: 5'-phosphotyrosyl oligonucleotide substrate): > 111000 nM
Clc1ccc(C2(c3ccc(-c4cccnc4)cc3)CCNCC2)cc1 — IC50 (AKT1 (Homo sapiens, UniProt P31749); kinase activity, inhibitor, radiometric HotSpot; with: ATP 10 µM): > 10000 nM
Cc1nc(N)sc1-c1csc(N(C)c2ccc(O)cc2)n1 — IC50 (Protein-lysine 6-oxidase (Homo sapiens, UniProt P28300); LOX activity, inhibitor; MDA-MB-231): 3500 nM
CN(CCc1ccc(Cl)c(Cl)c1)C[C@H](O)COc1ccc(NS(C)(=O)=O)cc1 — IC50 (Glutamate NMDA receptor; Grin1/Grin2b (Grin1/Grin2b, Rattus norvegicus, UniProt P35439+Q00960); pH 6.9): 50 nM
COC(=O)CSCCc1nc(-c2ccc(Cl)c(Cl)c2)cs1 — IC50 (ALK (Homo sapiens, UniProt Q9UM73); ELISA): 17000 nM
COc1ccc(CCC2OC(=O)C3CCCCN3C(=O)C(=O)C(C)(C)COC(=O)C=CCCN(C)C(=O)CNC(=O)C(COC(C)(C)C)N(C)C(=O)C(Cc3ccc4ccccc4c3)NC(=O)C(C)N(C)C(=O)COc3cccc2c3)cc1OC (stereo not shown) — IC50 (SLC2A1 (Homo sapiens, UniProt P11166); 2-deoxyglucose uptake, inhibitor; with: [3H]-2-deoxy-D-glucose): 46 nM
O=C(CC1SC(=NN=Cc2ccc(O)c(O)c2)NC1=O)Nc1ccc(C(=O)O)cc1 (stereo not shown) — IC50 (PPP3CA (Homo sapiens, UniProt Q08209); phosphatase activity, inhibitor, malachite green; with: phosphopeptide substrate at Km): > 200000 nM
COc1cc(Nc2ncnc(-c3cccnc3Nc3cc(NC(=O)c4cccc(C(F)(F)F)c4)ccc3C)n2)cc(OC)c1OC — IC50 (ABL1 (Homo sapiens, UniProt P00519); enzyme activity; kinase domain): 10 ± 3 nM
COC(=O)[C@@H]1C(C=Nc2cc(Cl)ccc2O)=Cc2cc3c(cc2[C@H]1c1cc(OC)c(OC)c(OC)c1)OCO3 — IC50 (Tubulin alpha/beta heterodimer (Leishmania infantum, UniProt A0A381MCS3+A4HTR0); tubulin polymerization, inhibitor; 37 °C, with: tubulin 1.2 mg/mL): > 20000 nM
O=C(OC(C(F)(F)F)C(F)(F)F)N1CC(OC(c2ccccc2)c2ccccc2)C1 — IC50 (ABHD6 (Homo sapiens, UniProt Q9BV23); inhibitor, fluorescence): 32.4 ± 2.9 nM
COc1ccc(-n2nc3c(=O)[nH]nc(N)c3c2-c2oc3ccc(C)cc3c2C)cc1 — IC50 (FGFR1 (Homo sapiens, UniProt P11362); kinase activity, inhibitor, ELISA): 36.6 ± 7.7 nM
CN1CCC[C@@H]1C(=O)N[C@@H](Cc1ccc(-c2ccccn2)cc1)B(O)O — IC50 (Proteasome subunit beta type-9 / Proteasome subunit beta type-10 (Homo sapiens, UniProt P28065+P40306); β1i enzyme activity, inhibitor; with: Ac-PAL-AMC): > 10000 nM
CN1CC[C@H](c2c(O)cc(O)c3c(=O)cc(-c4ccccc4F)oc23)[C@H](O)C1 — IC50 (Cyclin-dependent kinase 1, with cyclin B (CDK1, Homo sapiens, UniProt P06493); ATP at Km): 123 nM
NC(=O)c1cn(-c2ccc(F)cc2)c2ccc(CN3CCSCC3)cc2c1=O — IC50 (Grm2 (Rattus norvegicus, UniProt P31421); calcium mobilization, negative allosteric modulator): 420 nM
COc1ccc(-c2nc(S(C)(=O)=O)nn2-c2ccc(OC)cc2)cc1 — IC50 (PTGS2 (Homo sapiens, UniProt P35354); PGE2 production, inhibitor, enzyme immunoassay; human whole blood): > 1000 nM
COCCN1C(=O)Cc2cc(-c3csc(NC(=O)c4cc(OC)cc(OC)c4)n3)ccc21 — IC50 (Scavenger receptor class B member 1 (Mus musculus, UniProt Q61009); DiI-HDL uptake, inhibitor; mouse cells; with: DiI-HDL): 70 nM
CC(C)NC(=O)CSc1nc2ccc(NC(=O)CSc3ccc(C(C)C)cc3)cc2s1 — IC50 (Estrogen receptor (ESR1, Homo sapiens, UniProt P03372); reporter gene, antagonist; HEC-1 transfected ERα luciferase reporter): > 50000 nM
Cn1c(=O)c(-c2cc(Br)ccc2N)nc2ccccc21 — IC50 (Protein diaphanous homolog 1, FH2 domain (Diaph1, Mus musculus, UniProt O08808); actin assembly, inhibitor, pyrene-actin polymerization): > 50000 nM
COC(=O)/C(=C/c1c[nH]c2ccc(F)cc12)c1ccc(F)cc1 — IC50 (IDO1 (Homo sapiens, UniProt P14902); enzyme activity, inhibitor): > 50000 nM

Excerpt of the above:
NC(=O)c1cn(-c2ccc(F)cc2)c2ccc(CN3CCSCC3)cc2c1=O — IC50 (Grm2 (Rattus norvegicus, UniProt P31421); calcium mobilization, negative allosteric modulator): 420 nM
